Results from different studies.
Parts stem from different laboratories: compare values within a part only.

Sample 1
Target: RNA binding protein fox-1 homolog 2, RRM domain, GST-SBP tag (RBFOX2, Homo sapiens, UniProt O43251-10, residues 100-194)
Technique: RNA Bind-n-Seq
Molecule type: RNA
Medium: in vitro
Tested at: 365 nM
Setting: natural RNA segment, single round, ends assumed
Relative to: no-protein control
Direction: higher = stronger binding
Construct (chain): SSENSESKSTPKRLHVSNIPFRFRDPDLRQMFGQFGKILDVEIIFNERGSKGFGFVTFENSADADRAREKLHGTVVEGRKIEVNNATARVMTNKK
`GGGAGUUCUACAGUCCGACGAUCAGUCAUAAGGAAAGAAUUACGUGUACUUCAUAUCCCUAUAAAUUGUAAAUGCUAAAAAUGUUAAAGAACUCGAAGUAUUUCUCUAAAAGGCUGUCAAGAGAAUCUAGGUCUGGAAUUCUCGGGUGCCAA`: “RBNS enrichment (R)” 1.07.
Under “RBNS enrichment (R)”, `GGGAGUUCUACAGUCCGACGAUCUCCCUCUGUCUGUUUAUGCCUGGUGUGAGUUCCAUCGGGUGUCUUUAAAUAGUUGCAGAAGGGAUACGUCAUCUGUUAAUGCUUUUUGUGAAGUGAGUUAAUGAGCCUUCUGGAAUUCUCGGGUGCCAA` is recorded as 0.817.
`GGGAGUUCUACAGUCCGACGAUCAGAUUAAAGGCCUGUGAGUACUGCUGAGCUUGGUGUGGCUUGGUGUGGCAGAAGGCCUGGCCUAGGAUCCUAGAUAAGCAGGUGAAAUUUAGGCUUCAGAAUAUAUCCGAUGGAAUUCUCGGGUGCCAA`: “RBNS enrichment (R)” 0.728.
For `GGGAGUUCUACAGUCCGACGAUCAUACCCAGGUUUGGUUCCUCUAGGGGGGGGCCCCCACUGUGGAGAUAAAAGUCGGGGAUGGAAUGGGGGAAGAGGAAGGGCAGGAAAGCCCUCACCCUUUGCUGCCCUGGUGGAAUUCUCGGGUGCCAA`, “RBNS enrichment (R)” read 0.313.
`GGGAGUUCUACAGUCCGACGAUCUGGACAUCUUGGCAACACAAUCUUACAAAGGCAGAUUCAGCUGCCCCCAUACCACUGUGUUCCUUCUGUAACGCCACGUUCUCCCUCCAGCAUGCCGAGCACAAUGUCCAUGGAAUUCUCGGGUGCCAA`: “RBNS enrichment (R)” 2.27.
`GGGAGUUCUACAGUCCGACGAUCGUUUUAUAGAUACGGAAAACAAGGGUGACUCUUUACCACAGGAUGAAUAAAGAACUAAGUAAUAUGGGAAAUGCAGCAAUUUCUGGACUAGCUGAGCCGAUUCCUUCCUGUGGAAUUCUCGGGUGCCAA`: “RBNS enrichment (R)” 0.578.
`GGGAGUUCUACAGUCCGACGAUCUCCUUUGGGAUUUUGUUGCUCCGUUUAAACCAGGUGUAUUGUGACAUGAACAUGACUUUCCUAAAGUGGAAGGAUCUGUCCCCACCUUCACCCAGUCCUUAGGACAAGUAUGGAAUUCUCGGGUGCCAA`: “RBNS enrichment (R)” 0.283.
Under “RBNS enrichment (R)”, `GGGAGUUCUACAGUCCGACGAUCGGAGGACGCCACUCCGGCCCUUCACCCUUGCCAAGUGAGCUGCUCACAGUGUGGUCAGGGCUGCGCGUGCUGGAGGCCCUCCUGCCUGGGCCUUGUGGGGCAAAUAUUGGUGGAAUUCUCGGGUGCCAA` is recorded as 0.433.
`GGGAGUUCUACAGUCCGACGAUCUUUGCUUUGGCUAUUUUUUGUUGUAACCUCUUGAUGUAACAGCACUUUAAAAGGGCGACAACUGACUCACGAGAUGGCAACCACCUGGAGCCUGUUUGGGGAGACCACCCUGGAAUUCUCGGGUGCCAA` — result for “RBNS enrichment (R)”: 0.379.
Under “RBNS enrichment (R)”, `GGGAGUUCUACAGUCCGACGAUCGCCCCUUGCCUAAAAGCCUGUACCUCUGGAUUGGCGGAAGUAAAUCUGGAAGGAUUCUCACUCGUAUUUCCCACCCCUAGUGGCCAGAGGAGGGAGGGGCACAGUGAAGAUGGAAUUCUCGGGUGCCAA` is recorded as 0.71.
For `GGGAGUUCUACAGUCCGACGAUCCAUCCCUAGCUCCUGCAAGAGAAAGUCCAGGCUUUGGGAGCAGAUGGCAGAGGGAGGGAGUAAAGAAAGAGCCAAAAAUGAUGAUCCACAGCUUAUAGUAGCAGUUAAACUGGAAUUCUCGGGUGCCAA`, “RBNS enrichment (R)” read 0.374.
Under “RBNS enrichment (R)”, `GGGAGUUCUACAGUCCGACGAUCGUGUACAGAGAGGCCCGUGCUAGCUAGCACCAAGUUGGUUGACAGAUUGUUUUGUGAUGCUUGCCCUGCCUCGGUAUUGCCAGUUUCUUGUGCAAUAAAGAAUCAGCAGCUGGAAUUCUCGGGUGCCAA` is recorded as 0.417.

Sample 2
Target: RING finger protein unkempt homolog, zinc fingers 1-6, SBP tag (UNK, Homo sapiens, UniProt Q9C0B0, residues 30-357)
Sequence of UniProt Q9C0B0 (30-357, looked up): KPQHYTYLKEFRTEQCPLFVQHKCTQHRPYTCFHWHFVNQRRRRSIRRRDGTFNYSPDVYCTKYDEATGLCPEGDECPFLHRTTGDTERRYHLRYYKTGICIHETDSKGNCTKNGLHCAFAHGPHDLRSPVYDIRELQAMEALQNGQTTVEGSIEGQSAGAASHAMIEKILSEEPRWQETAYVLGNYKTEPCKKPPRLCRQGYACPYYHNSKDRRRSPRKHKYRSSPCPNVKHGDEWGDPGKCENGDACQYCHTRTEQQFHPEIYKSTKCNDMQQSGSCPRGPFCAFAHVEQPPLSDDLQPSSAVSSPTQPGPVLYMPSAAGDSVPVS
Technique: RNA Bind-n-Seq
Molecule type: RNA
Medium: in vitro
Tested at: 100 nM
Setting: RNA with constant flanks, vertebrate orthologous sites, ends assumed
Relative to: input RNA pool
Direction: higher = stronger binding
For `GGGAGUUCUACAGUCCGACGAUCGCAUGCACAUGCCACUGUCACCGAAAGCGAACCAUCACUUCUCAGAUUUCCGAGCUGUUGUAGUGUUUCCCAGUCCCUACCCUUCCCACGACUUUGAGAGAUGAACUGUCCUAAGUUGUUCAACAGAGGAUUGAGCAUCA`, the bound/input enrichment was 0.393 ratio.
`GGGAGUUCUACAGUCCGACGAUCUGGCGGGCCCGGGCCCCCGCCGCUCAGAGCAGCCCACUGGCCACGUCAGCCAGGCCAUUUGGGCUGUUUAUUUUACCAGUGCCCUUACUACCCUGUGUACAUGCCUGAGAUCUGGAAAGACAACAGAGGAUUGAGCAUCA` has a bound/input enrichment of 0.694 ratio.
With `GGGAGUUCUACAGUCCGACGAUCCAGUAAGGGGAUGCUGGAUGAGAUGAGGAGCAAGUUAAGGCGGCAGAGGUUGGUAAAAUUGCUGCCAUUGCACAAUGGCUAAACUGCAGUCACUUUUCUGUGUAAAACCAGCUGUGUUUACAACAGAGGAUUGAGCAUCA` the bound/input enrichment was 0.532 ratio.
For `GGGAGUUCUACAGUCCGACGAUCAGCAAAUCCAAUCACUGUGAUAUUUAAAAUAUGCACAGUCCUAAUCUUUCUCAAUGAUCCUAGUAUUUUUCUAGCUGUAUCUUUGUAUCUCAUACUGUUAUUUAUCAGUUUUGUUCCCCUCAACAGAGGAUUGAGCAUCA`, the bound/input enrichment was 0.615 ratio.
The bound/input enrichment of `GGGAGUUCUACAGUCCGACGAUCGUGUUUUGGUACCACUUGAUGUACCAAUACUCAUCCUUUUUUCAUUAUACCAACUAUCGCUAGAAGUAGGAGUUUAAUAUUUUUAAAAAUUUUACAUUGCUGUAUAUUCAAAAUUUUAAACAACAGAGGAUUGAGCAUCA` is reported as 0.699 ratio.
For `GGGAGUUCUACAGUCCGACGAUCGCCUACAAUAAUGAAAACCUACCAGGAAUUUUUUAAUUUUUCAUUUCCCUUAGGCAUACUUAGUCUUUUUUUCCCCCAGGCAGAUCAUUCUGAGUGUGCGAGUGUGUGUGCACAUGUUACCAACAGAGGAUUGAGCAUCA`, the bound/input enrichment was 1.26 ratio.
`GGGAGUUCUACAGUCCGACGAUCUGAUGUGGACACAAUUGCCUACAAUAAUGAAACCGACAGGAUUUUUUUUAAAGGCAUAUUUAGGCAUUUUUCCCCAGGCAGAUCAUUCUGAGUGUGCGAGUGUGUGUGCACAUGUUACAACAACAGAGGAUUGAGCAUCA` has a bound/input enrichment of 0.388 ratio.
`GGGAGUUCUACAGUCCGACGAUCAUCCCUCAGUGACAGUAUGCCAUCUGUAGCAGACUCCCACUCUAGUCACUUUUCUGAAUUUAGUUGUUCUGACCUAGAAAGCAUGAAAACGUCUUGUAGCCAUGGUUCCAAUGACCAUCACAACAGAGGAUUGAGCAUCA` gave a bound/input enrichment of 2.76 ratio.
For `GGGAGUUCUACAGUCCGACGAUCUUGACUUUGGACGUCCGCCCUUCCUCGGCGCGAAGGCUGUUCAGUCCCGGGCUUUGCAAGUUUGUCGUUCUCUCCGGGACUCGAGGCUUCUGCCGCAGCCAUGAUCCGCCAGAUCAUCGGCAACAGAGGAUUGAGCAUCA`, the bound/input enrichment was 0.126 ratio.
For `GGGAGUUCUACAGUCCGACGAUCGUGAGGGUCUACUGACCACUCACUGUUACGUCUGGUAUCUGUAAACACUCUUUUUGUUCUUAGUCUUUUUCUUGUAUAAUUGAUGUUCUUUAAAAUUGUUAAUGUAUAACAGGGCUUAUGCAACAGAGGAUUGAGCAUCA`, the bound/input enrichment was 2.55 ratio.
For `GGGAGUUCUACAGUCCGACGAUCCCCUGUGAGGGUCUCCUGACCACUCACUGUUACGUCUGCUAUCUGUAAACACUUCUGUCUUAGUUUUCUCAUUGUAUAAUUGAUGUUCUUUAAAAUUGUCAAUGUAUAACAGGGCUUAUGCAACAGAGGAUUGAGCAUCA`, the bound/input enrichment was 1.23 ratio.

Sample 3
Target: Histone acetyltransferase KAT6A, both winged helices, GST fusion (KAT6A, Homo sapiens, UniProt Q92794, residues 1-181)
Technique: protein binding microarray
Molecule type: double-stranded DNA, one strand shown
Medium: in vitro
Tested at: not given
Setting: 8-mer, flanks averaged, mean of 2 arrays, mostly near background
Relative to: not given
Direction: higher = stronger binding
Construct (chain): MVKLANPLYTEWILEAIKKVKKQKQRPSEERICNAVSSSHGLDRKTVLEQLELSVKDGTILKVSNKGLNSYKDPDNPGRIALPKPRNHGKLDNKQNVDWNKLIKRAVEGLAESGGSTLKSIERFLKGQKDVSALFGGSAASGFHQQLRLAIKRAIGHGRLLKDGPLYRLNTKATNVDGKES
For `GGATACGA`, the E-score was -0.055.
`GCCAGACA` gave an E-score of -0.115.
`CTGCTCGA` gave an E-score of -0.257.
`ATGGCGGG` has an E-score of 0.0982.
With `AAAGGCAG` the E-score was -0.088.
`GCAATAGC` has an E-score of -0.0478.
For `CATCCTGA`, the E-score was -0.0374.
For `ACCATTTG`, the E-score was 0.0283.
With `CGCAGCGC` the E-score was 0.316.
With `GCAGCAGC` the E-score was -0.0311.
`GGGCGCAA` has an E-score of 0.211.
The E-score of `AAGGCGGA` is reported as 0.187.
`ACGCACCA` gave an E-score of 0.117.
`AAGAAGAG` gave an E-score of -0.124.
`CAAAGGTA` gave an E-score of -0.0894.
`ATAAAGCA` has an E-score of -0.253.
`GTTGCCAA` gave an E-score of -0.237.

Sample 4
Target: Hepatocyte nuclear factor 3-beta, forkhead domain (FOXA2, Homo sapiens, UniProt Q9Y261, residues 142-269)
Technique: protein-binding microarray
Molecule type: double-stranded DNA, one strand shown
Medium: in vitro
Tested at: not given
Setting: k-mer, scored over probes, only values ≥0.25
Direction: higher = stronger binding
Residues (chain): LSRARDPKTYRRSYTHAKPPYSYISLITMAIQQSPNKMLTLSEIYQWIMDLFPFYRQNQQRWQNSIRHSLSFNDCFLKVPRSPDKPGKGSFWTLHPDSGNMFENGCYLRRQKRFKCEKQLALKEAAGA
The E-score of `CTATTTGA` is reported as 0.29.
`CATTAACA` has an E-score of 0.267.
`TAATGTGA` has an E-score of 0.352.
The E-score of `CTGTGTAC` is reported as 0.306.
For `GGTATACA`, the E-score was 0.316.
`CGTGTGTA` gave an E-score of 0.295.
`ACTTACAA` gave an E-score of 0.339.
The E-score of `GATTAAAA` is reported as 0.262.
With `ATATTTAA` the E-score was 0.383.
`AATATAAG` has an E-score of 0.348.
The E-score of `ATAACCAG` is reported as 0.269.
`ATGGCAAC` gave an E-score of 0.265.
The E-score of `ATATGGCA` is reported as 0.308.
The E-score of `TCAAACCA` is reported as 0.267.
`ACACAAAT` has an E-score of 0.327.
For `TAACTTCA`, the E-score was 0.321.
With `CTGTTTGA` the E-score was 0.276.
The E-score of `ACATAGGT` is reported as 0.279.
`ATCTATAC` gave an E-score of 0.259.
The E-score of `ACGGACAA` is reported as 0.292.
The E-score of `ACATCACA` is reported as 0.265.
The E-score of `ATCAGTCA` is reported as 0.252.
`TCTTATCA` has an E-score of 0.282.
With `CACTAACA` the E-score was 0.271.
With `CATGGTCA` the E-score was 0.308.

Repeated from above (sample 4):
The E-score of `ATCAGTCA` is reported as 0.252.
`ACTTACAA` gave an E-score of 0.339.
`CATTAACA` has an E-score of 0.267.
The E-score of `CTGTGTAC` is reported as 0.306.
The E-score of `TCAAACCA` is reported as 0.267.
`ATGGCAAC` gave an E-score of 0.265.
With `ATATTTAA` the E-score was 0.383.
